Results pooled from the literature.
Protocols differ between the studies behind these lines. “And” joins repeats or separate records; there may be more than shown.

| Compound | assay | system | setting | scale | quantity | value |
| --- | --- | --- | --- | --- | --- | --- |
| O=C(NC1CCC(F)(F)CC1)C(c1cncnc1)N(C(=O)C(F)Cl)c1ccc(-c2cncs2)cc1 (centres unmarked) |  | human liver microsomes | concentration not given, 0.1667 h, pH 7.4 |  | remaining compound | 83.3% |
| Cc1ccc(C(C)C)cc1.O=C(N=P(c1ccccc1)(c1ccccc1)c1ccccc1)c1[c-]cccc1.[Cl-].[Ru+2] |  | DMSO-d6 | 3 weeks |  | remaining intact compound | 25% |
| CC[C@H](C)[C@@H](C(=O)N[C@@H](CC(C)C)C(=O)N[C@@H](CO)C(=O)N[C@@H](CO)C(=O)N[C@H](C(=O)N[C@@H](CCC(=O)O)C(=O)N[C@H](C(=O)NCC(=O)N[C@@H](CO)C(=O)N[C@@H](CC(N)=O)C(=O)N[C@H](C(=O)N1C[C@H](O)C[C@H]1C(N)=O)[C@@H](C)O)C(C)C)[C@@H](C)O)N(C)C(=O)[C@H](C)NC(=O)CN(C)C(=O)[C@H](Cc1ccccc1)NC(=O)[C@H](CO)NC(=O)[C@H](CO)NC(=O)[C@H](CCCNC(=N)N)NC(=O)[C@H](CCC(N)=O)NC(=O)[C@H](CC(C)C)NC(=O)[C@H](Cc1ccccc1)NC(=O)[C@H](Cc1c[nH]cn1)NC(=O)[C@H](C)NC(=O)[C@H](CC(C)C)NC(=O)[C@H](CCCNC(=N)N)NC(=O)[C@H](CCC(=O)O)NC(=O)[C@@H](NC(=O)[C@H](C)NC(=O)[C@@H]1CSSC[C@H](NC(=O)[C@H](CCCNC(=N)N)NC(=O)CC[C@H](NC(=O)CCCCCCCCCCCCCCCCCCC(=O)O)C(=O)O)C(=O)NCC(=O)N[C@@H]([C@@H](C)O)C(=O)N[C@@H](C)C(=O)N[C@@H]([C@@H](C)O)C(=O)N1)[C@@H](C)O | RP-HPLC | water | 7 days, pH 7.5, 40 °C |  | remaining main peak | 90 area % |
| CN(Cc1cc(C2CC2)on1)C(=O)c1cccc(-c2ccc(F)cc2)c1 |  | human liver microsomes | 2 µM, 120 min, pH 7.5, without ABT |  | remaining compound | 39.6% |
| C#Cc1c(F)ccc2cc(O)cc(-c3ncc4c(N5CC6CCC(C5)N6C(=O)OC(C)OC(=O)c5ccc6ccccc6c5)nc(OC[C@@]56CCCN5C[C@H](F)C6)nc4c3F)c12 (some centres unmarked) |  | simulated gastric fluid | 1 µM, 30 min, 37 °C |  | remaining prodrug | 106% |
| CC[C@H](C)[C@@H](C(=O)N[C@@H](CC(C)C)C(=O)N[C@@H](CO)C(=O)N[C@@H](CO)C(=O)N[C@H](C(=O)N[C@@H](CCC(=O)O)C(=O)N[C@H](C(=O)NCC(=O)N[C@@H](CO)C(=O)N[C@@H](CC(N)=O)C(=O)N[C@H](C(=O)N1C[C@H](O)C[C@H]1C(N)=O)[C@@H](C)O)C(C)C)[C@@H](C)O)N(C)C(=O)[C@H](C)NC(=O)CN(C)C(=O)[C@H](Cc1ccccc1)NC(=O)[C@H](CO)NC(=O)[C@H](CO)NC(=O)[C@H](CCCNC(=N)N)NC(=O)[C@H](CCC(N)=O)NC(=O)[C@H](CC(C)C)NC(=O)[C@H](Cc1ccccc1)NC(=O)[C@H](CC(=O)O)NC(=O)[C@H](C)NC(=O)[C@H](CC(C)C)NC(=O)[C@H](CCCNC(=N)N)NC(=O)[C@H](CCC(N)=O)NC(=O)[C@@H](NC(=O)[C@H](C)NC(=O)[C@@H]1CSSC[C@H](NC(=O)[C@H](CCCNC(=N)N)NC(=O)CC[C@H](NC(=O)CCCCCCCCCCCCCCCCCCC(=O)O)C(=O)O)C(=O)N[C@@H](CC(N)=O)C(=O)N[C@@H]([C@@H](C)O)C(=O)N[C@@H](C)C(=O)N[C@@H]([C@@H](C)O)C(=O)N1)[C@@H](C)O | RP-HPLC | water | 7 days, pH 6.0, 40 °C |  | remaining main peak | 97 area % |
| N=C(N)NCCC[C@@H]1NC(=O)[C@H](CCCNC(=N)N)NC(=O)[C@@H](C(c2ccccc2)c2ccccc2)NC(=O)[C@H](Cc2c[nH]c3ccccc23)NC(=O)[C@@H](C(c2ccccc2)c2ccccc2)NC(=O)[C@@H](CCCNC(=N)N)NC(=O)[C@@H](CCCNC(=N)N)NC1=O | LC-MS | human plasma | 6 h |  | remaining peptide | 50.7% |
| [2H]C1([2H])CC[C@@H](C[C@@H](C#N)NC(=O)[C@@H]2[C@@H]3[C@H](CN2C(=O)[C@@H](NC(=O)C(F)F)C(C)(C)C)C3(C)C)C(=O)N1 |  | mouse liver microsomes | 60 min |  | remaining compound | 104% |
| O=C(NC1CCC(F)(F)CC1)C(c1cncnc1)N(C(=O)C(F)Cl)c1ccc(OC(F)(F)F)cc1 (centres unmarked) |  | human liver microsomes | concentration not given, 1 h, pH 7.4 |  | remaining compound | 90.6% |
| CCN(CC)CC#CCNc1ccnc2cc(Cl)ccc12 |  | human hepatocytes | 10 µM, 30 min | relative to: time zero | remaining parent | 54.6% |
| CC[C@H](C)[C@@H](C(=O)N[C@@H](CC(C)C)C(=O)N[C@@H](CO)C(=O)N[C@@H](CO)C(=O)N[C@H](C(=O)N[C@@H](CCC(=O)O)C(=O)N[C@H](C(=O)NCC(=O)N[C@@H](CO)C(=O)N[C@@H](CC(N)=O)C(=O)N[C@H](C(=O)N1C[C@H](O)C[C@H]1C(N)=O)[C@@H](C)O)C(C)C)[C@@H](C)O)N(C)C(=O)[C@H](C)NC(=O)CN(C)C(=O)[C@H](Cc1ccccc1)NC(=O)[C@H](CO)NC(=O)[C@H](CO)NC(=O)[C@H](CCCNC(=N)N)NC(=O)[C@H](CCC(N)=O)NC(=O)[C@H](CC(C)C)NC(=O)[C@H](Cc1ccccc1)NC(=O)[C@H](Cc1c[nH]cn1)NC(=O)[C@H](C)NC(=O)[C@H](CC(C)C)NC(=O)[C@H](CCCNC(=N)N)NC(=O)[C@H](CCC(=O)O)NC(=O)[C@@H](NC(=O)[C@H](C)NC(=O)[C@@H]1CSSC[C@H](NC(=O)[C@H](CCCNC(=N)N)NC(=O)CC[C@H](NC(=O)CCCCCCCCCCCCCCCCCCC(=O)O)C(=O)O)C(=O)N[C@@H](CCC(N)=O)C(=O)N[C@@H]([C@@H](C)O)C(=O)N[C@@H](C)C(=O)N[C@@H]([C@@H](C)O)C(=O)N1)[C@@H](C)O | RP-HPLC | water | 7 days, pH 6.0, 40 °C |  | remaining main peak | 96 area % |
| CC(C)(C)[C@H](NC(=O)c1ccc(Oc2ccc(C(=O)N[C@H]3CCCC[C@@H]3O)cc2)cc1)C(=O)NCCN1CCCC1 |  | human liver microsomes | 1 µM, 10 min, pH 7.4 |  | remaining compound | 93.2% |
| CC[C@H](C)[C@@H](C(=O)N[C@@H](CC(C)C)C(=O)N[C@@H](CO)C(=O)N[C@@H](CO)C(=O)N[C@H](C(=O)N[C@@H](CCC(=O)O)C(=O)N[C@H](C(=O)NCC(=O)N[C@@H](CO)C(=O)N[C@@H](CCCN)C(=O)N[C@H](C(=O)N1C[C@H](O)C[C@H]1C(N)=O)[C@@H](C)O)C(C)C)[C@@H](C)O)N(C)C(=O)[C@H](C)NC(=O)CN(C)C(=O)[C@H](Cc1ccccc1)NC(=O)[C@H](CO)NC(=O)[C@H](CO)NC(=O)[C@H](CCCNC(=N)N)NC(=O)[C@@H](NC(=O)[C@H](CC(C)C)NC(=O)[C@H](Cc1ccccc1)NC(=O)[C@H](Cc1c[nH]cn1)NC(=O)[C@H](C)NC(=O)[C@H](CC(C)C)NC(=O)[C@H](CCCNC(=N)N)NC(=O)[C@H](CCC(=O)O)NC(=O)[C@@H](NC(=O)[C@H](C)NC(=O)[C@@H]1CSSC[C@H](NC(=O)[C@H](CCCNC(=N)N)NC(=O)CC[C@H](NC(=O)CCCCCCCCCCCCCCCCCCC(=O)O)C(=O)O)C(=O)NCC(=O)N[C@@H]([C@@H](C)O)C(=O)N[C@@H](C)C(=O)N[C@@H]([C@@H](C)O)C(=O)N1)[C@@H](C)O)[C@@H](C)O | RP-HPLC | water | 7 days, pH 6.0, 40 °C |  | remaining main peak | 89 area % |
| C=CC(=O)Nc1cc(Nc2nccc(-c3cn(C)c4ccccc34)n2)c(OC)cc1N(C)CCNC | storage stability | human dried blood spot | 270 ng/mL, 24 h, -80 °C, HQC level |  | remaining amount | 99.2% |
| CC[C@H](C)[C@@H](C(=O)N[C@@H](CC(C)C)C(=O)N[C@@H](CO)C(=O)N[C@@H](CO)C(=O)N[C@H](C(=O)N[C@@H](CCC(=O)O)C(=O)N[C@H](C(=O)NCC(=O)N[C@@H](CO)C(=O)NCC(=O)N[C@H](C(=O)N1C[C@H](O)C[C@H]1C(N)=O)[C@@H](C)O)C(C)C)[C@@H](C)O)N(C)C(=O)[C@H](C)NC(=O)CN(C)C(=O)[C@H](Cc1ccccc1)NC(=O)[C@H](CO)NC(=O)[C@H](CO)NC(=O)[C@H](CCCNC(=N)N)NC(=O)[C@@H](NC(=O)[C@H](CC(C)C)NC(=O)[C@H](Cc1ccccc1)NC(=O)[C@H](Cc1c[nH]cn1)NC(=O)[C@H](C)NC(=O)[C@H](CC(C)C)NC(=O)[C@H](CCCNC(=N)N)NC(=O)[C@H](CCC(=O)O)NC(=O)[C@@H](NC(=O)[C@H](C)NC(=O)[C@@H]1CSSC[C@H](NC(=O)[C@H](CCCNC(=N)N)NC(=O)CC[C@H](NC(=O)CCCCCCCCCCCCCCCCCCC(=O)O)C(=O)O)C(=O)NCC(=O)N[C@@H]([C@@H](C)O)C(=O)N[C@@H](C)C(=O)N[C@@H]([C@@H](C)O)C(=O)N1)[C@@H](C)O)[C@@H](C)O | RP-HPLC | water | 7 days, pH 6.0, 40 °C |  | remaining main peak | 94 area % |
| CC(C)(C)[Si](C)(C)Oc1ccc(COC(=O)NNc2ccccc2)cc1 |  | PBS | 0 h, 37 °C | relative to: initial amount | remaining fraction | 0.99 and 1 and 0.98 |
| Cc1ccc(C(C)C)cc1.O=C(N=P(c1ccccc1)(c1ccccc1)c1ccccc1)c1ccccn1.[Cl-].[Cl-].[Ru+2] |  | DMSO-d6 | 1 month |  | remaining intact compound | 87% |
